Measurements gathered from unrelated publications.
Each numbered part is a random draw from the data of one study; scales do not carry over between parts. Changes are numbered by the printed parent chain.

Series 1 — target: CCNA2, cyclin fold, Cln2 fusion (human); technique: yeast growth competition, sequencing; sample: yeast; setting: strong parent motif; reference: not given; direction: higher = stronger binding; starting sequence: viral docking peptide; KGVKRKLFAEDSS
Variant | normalised enrichment score
A9Q | 6.37
A9I | 6.05
F8Q | 0.585
R5K F8L | 0.888
L7S | 0.364
F8E | 0.481
D11Y | 6.28
K4F | 4.39
F8Y | 3.35
V3Y | 4.98
A9T | 5.98
G2N | 6.41
D11E | 6.35
D11L | 6.12
S12V | 6.52
A9Y | 6.44
S13A | 6.98
R5P | 0.728

Series 2 — technique: protein-binding microarray; molecule type: double-stranded DNA, one strand shown; sample: in vitro; concentration: 250 nM; setting: 60-bp whole probe; with: salmon DNA 0.4 mg/ml; reference: random background probes; direction: higher = stronger binding; shared flanks, not repeated: GCCTAGCAC … GTCTTGATTCGCTTGACGCTGCTG
Target: Interferon regulatory factor 7, full length, phosphomimetic (IRF7, Homo sapiens, UniProt Q92985, residues 1-503, S101K/S471D/S472D/S475D/S476D/S477D/S483D/S484D/S487D)
Residues (chain): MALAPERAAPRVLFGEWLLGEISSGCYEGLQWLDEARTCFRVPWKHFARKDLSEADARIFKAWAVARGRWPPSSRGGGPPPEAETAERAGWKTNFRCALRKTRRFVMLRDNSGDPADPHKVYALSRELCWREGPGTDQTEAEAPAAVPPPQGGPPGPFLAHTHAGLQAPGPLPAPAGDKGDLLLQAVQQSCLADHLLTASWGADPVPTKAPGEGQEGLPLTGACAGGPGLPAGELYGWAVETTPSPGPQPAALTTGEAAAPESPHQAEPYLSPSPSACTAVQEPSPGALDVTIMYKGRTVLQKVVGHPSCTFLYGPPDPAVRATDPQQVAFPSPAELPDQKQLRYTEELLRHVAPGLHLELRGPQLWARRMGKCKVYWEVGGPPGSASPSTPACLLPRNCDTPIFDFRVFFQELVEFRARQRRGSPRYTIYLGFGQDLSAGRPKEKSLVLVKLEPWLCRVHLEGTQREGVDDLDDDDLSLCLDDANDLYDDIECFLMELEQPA
Sequence | log fluorescence [z-score]
GACGATATCGGGTTTCTAGACGTGCTA | 0.43
CAGAAGCCAGAGAGGACAGGGTGCTAG | -0.604
TCACTCTCTCTATTCTGTGGGTGCTAG | 0.58
TCAATTTTCTCTTATTCACTGTGCTAG | 1.01
GACGGACTGGGAACTGGGGACGTGCTA | -0.599
AGAAACTTGTATTTGTCCCTGTGCTAG | 0.365
TCACTTTCCTTCTTGATACTGTGCTAG | 2.42
TCATGTGTGTGTTTGTGACTGTGCTAG | -0.426

Series 3 — technique: aptamer microarray, sandwich; molecule type: DNA with 2'F-ANA; sample: in vitro; concentration: 200 nM; with: Cy3 exosite-II aptamer, 400 nM; direction: higher = stronger binding; sequence: GGTTGGTGTGGTTGG
Target: Prothrombin, mature alpha-thrombin (F2, Homo sapiens, UniProt P00734)
Setting: whole 15-mer aptamer, many near background
Modification | mean fluorescence intensity [a.u.]
2'F-ANA at 1 4 5 6 7 9 10 14 | 47
2'F-ANA at 3 5 6 7 12 | 292
2'F-ANA at 8 9 10 11 12 15 | 172
2'F-ANA at 3 4 6 9 11 14 | 241
2'F-ANA at 1 2 3 4 5 6 7 11 13 14 | 51
2'F-ANA at 1 2 9 11 12 13 | 242
2'F-ANA at 1 5 6 9 10 11 14 | 47.2
2'F-ANA at 6 7 10 11 12 13 15 | 173

Further values, each from its own experiment — technique: cross-linking MS; NUP58: NUP58 (Homo sapiens, UniProt Q9BVL2)
Molecule | partner | system | setting | endpoint | value
NUP98 (Homo sapiens, UniProt P52948) | RRP1B (Homo sapiens, UniProt Q14684) | cell fractions | with: DSSO | cross-linked residues | Y802 to T685
NUP62 (Homo sapiens, UniProt P37198) | NUP58 |  | hits only | interaction screen | cross-linked
SPTB (Homo sapiens, UniProt P11277) | BAZ1A (Homo sapiens, UniProt Q9NRL2) | cell fractions | with: DSSO | cross-linked residues | K630 to K387
TMEM209 (Homo sapiens, UniProt Q96SK2) | NUP58 |  | hits only | interaction screen | cross-linked

Excerpt of the above (series 1):
Variant | normalised enrichment score
A9Q | 6.37
A9I | 6.05
F8Q | 0.585
R5K F8L | 0.888
L7S | 0.364
F8E | 0.481
